# Experimental data gathered from unrelated publications.
# Compare with care: the assays were run in different laboratories. “And” joins repeats or separate records; there may be more than shown.
# UniProt Q9EPB5, sequence (whole entry, looked up): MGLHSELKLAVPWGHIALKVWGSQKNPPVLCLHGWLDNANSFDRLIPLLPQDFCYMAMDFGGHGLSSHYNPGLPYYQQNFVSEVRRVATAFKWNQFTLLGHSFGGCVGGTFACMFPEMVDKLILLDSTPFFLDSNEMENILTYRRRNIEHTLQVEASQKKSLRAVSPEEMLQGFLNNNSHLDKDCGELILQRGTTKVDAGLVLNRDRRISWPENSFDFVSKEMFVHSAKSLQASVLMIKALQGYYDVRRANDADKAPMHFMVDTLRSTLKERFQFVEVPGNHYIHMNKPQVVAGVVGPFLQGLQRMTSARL
# UniProt Q9ULC6, sequence (whole entry, looked up): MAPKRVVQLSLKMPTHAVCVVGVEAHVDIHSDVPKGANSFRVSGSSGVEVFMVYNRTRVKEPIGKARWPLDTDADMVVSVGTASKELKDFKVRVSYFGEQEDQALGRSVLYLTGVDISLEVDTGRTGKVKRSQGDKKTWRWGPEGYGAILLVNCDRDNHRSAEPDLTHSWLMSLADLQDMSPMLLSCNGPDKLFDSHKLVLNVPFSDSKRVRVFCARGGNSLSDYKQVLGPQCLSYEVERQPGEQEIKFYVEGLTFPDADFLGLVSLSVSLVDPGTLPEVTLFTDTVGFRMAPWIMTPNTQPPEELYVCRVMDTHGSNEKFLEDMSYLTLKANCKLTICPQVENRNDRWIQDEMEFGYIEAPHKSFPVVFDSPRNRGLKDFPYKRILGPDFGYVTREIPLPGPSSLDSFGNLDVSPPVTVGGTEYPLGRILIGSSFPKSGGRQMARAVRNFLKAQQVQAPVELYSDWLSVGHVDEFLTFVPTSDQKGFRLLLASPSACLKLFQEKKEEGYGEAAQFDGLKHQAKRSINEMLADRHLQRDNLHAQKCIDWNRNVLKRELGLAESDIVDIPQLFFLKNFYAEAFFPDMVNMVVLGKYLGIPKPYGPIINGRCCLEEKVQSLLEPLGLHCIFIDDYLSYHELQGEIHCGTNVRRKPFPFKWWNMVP
# UniProt Q6DWJ6, sequence (whole entry, looked up): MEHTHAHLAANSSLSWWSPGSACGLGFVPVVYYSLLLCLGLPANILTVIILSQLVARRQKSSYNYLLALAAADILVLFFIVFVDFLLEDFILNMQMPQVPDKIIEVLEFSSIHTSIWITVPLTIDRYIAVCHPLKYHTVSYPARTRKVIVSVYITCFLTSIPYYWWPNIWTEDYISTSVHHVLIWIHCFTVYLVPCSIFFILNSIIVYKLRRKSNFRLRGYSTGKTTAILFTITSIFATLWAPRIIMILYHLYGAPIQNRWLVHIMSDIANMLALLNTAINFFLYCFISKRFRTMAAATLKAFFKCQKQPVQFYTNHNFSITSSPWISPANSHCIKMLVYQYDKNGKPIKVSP
# UniProt P45985, sequence (whole entry, looked up): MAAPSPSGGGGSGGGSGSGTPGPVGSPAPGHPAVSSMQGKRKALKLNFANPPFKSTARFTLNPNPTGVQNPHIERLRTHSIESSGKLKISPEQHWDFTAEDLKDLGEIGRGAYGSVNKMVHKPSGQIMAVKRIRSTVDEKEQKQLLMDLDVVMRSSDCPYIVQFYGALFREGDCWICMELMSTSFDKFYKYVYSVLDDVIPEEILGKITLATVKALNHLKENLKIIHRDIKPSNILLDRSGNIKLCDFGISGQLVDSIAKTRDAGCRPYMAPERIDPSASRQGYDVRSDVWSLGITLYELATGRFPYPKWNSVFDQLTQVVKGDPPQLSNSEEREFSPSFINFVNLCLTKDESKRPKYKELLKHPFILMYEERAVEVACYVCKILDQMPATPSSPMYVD
# UniProt P00519, sequence (whole entry, looked up): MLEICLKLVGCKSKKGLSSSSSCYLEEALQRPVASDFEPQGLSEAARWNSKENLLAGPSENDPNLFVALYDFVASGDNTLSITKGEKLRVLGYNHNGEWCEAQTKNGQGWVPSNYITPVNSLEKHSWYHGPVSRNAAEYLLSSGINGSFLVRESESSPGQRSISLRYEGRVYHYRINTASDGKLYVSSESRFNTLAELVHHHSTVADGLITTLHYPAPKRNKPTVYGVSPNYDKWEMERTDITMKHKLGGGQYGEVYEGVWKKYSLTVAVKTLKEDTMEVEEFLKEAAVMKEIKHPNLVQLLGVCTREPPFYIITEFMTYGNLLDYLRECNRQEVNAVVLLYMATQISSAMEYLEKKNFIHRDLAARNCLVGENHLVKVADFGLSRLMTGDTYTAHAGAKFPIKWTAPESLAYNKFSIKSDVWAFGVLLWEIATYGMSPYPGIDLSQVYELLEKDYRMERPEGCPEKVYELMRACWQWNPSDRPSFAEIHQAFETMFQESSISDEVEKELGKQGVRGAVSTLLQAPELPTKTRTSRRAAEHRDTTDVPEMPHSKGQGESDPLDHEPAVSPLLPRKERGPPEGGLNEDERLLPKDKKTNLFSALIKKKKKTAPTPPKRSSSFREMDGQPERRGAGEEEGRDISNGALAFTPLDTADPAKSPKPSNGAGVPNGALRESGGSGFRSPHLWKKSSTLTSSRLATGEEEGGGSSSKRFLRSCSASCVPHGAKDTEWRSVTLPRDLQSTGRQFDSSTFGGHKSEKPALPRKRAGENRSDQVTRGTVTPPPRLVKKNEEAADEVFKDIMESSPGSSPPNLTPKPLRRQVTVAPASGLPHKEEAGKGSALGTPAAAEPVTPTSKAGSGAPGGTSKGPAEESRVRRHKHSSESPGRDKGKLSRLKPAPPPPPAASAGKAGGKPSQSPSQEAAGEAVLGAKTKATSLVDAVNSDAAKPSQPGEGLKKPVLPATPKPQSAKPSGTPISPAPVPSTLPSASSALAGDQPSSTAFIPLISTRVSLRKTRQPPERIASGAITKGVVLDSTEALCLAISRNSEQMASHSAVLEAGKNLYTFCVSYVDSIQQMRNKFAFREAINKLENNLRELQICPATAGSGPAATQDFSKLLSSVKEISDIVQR
# UniProt P08069, sequence (whole entry, looked up): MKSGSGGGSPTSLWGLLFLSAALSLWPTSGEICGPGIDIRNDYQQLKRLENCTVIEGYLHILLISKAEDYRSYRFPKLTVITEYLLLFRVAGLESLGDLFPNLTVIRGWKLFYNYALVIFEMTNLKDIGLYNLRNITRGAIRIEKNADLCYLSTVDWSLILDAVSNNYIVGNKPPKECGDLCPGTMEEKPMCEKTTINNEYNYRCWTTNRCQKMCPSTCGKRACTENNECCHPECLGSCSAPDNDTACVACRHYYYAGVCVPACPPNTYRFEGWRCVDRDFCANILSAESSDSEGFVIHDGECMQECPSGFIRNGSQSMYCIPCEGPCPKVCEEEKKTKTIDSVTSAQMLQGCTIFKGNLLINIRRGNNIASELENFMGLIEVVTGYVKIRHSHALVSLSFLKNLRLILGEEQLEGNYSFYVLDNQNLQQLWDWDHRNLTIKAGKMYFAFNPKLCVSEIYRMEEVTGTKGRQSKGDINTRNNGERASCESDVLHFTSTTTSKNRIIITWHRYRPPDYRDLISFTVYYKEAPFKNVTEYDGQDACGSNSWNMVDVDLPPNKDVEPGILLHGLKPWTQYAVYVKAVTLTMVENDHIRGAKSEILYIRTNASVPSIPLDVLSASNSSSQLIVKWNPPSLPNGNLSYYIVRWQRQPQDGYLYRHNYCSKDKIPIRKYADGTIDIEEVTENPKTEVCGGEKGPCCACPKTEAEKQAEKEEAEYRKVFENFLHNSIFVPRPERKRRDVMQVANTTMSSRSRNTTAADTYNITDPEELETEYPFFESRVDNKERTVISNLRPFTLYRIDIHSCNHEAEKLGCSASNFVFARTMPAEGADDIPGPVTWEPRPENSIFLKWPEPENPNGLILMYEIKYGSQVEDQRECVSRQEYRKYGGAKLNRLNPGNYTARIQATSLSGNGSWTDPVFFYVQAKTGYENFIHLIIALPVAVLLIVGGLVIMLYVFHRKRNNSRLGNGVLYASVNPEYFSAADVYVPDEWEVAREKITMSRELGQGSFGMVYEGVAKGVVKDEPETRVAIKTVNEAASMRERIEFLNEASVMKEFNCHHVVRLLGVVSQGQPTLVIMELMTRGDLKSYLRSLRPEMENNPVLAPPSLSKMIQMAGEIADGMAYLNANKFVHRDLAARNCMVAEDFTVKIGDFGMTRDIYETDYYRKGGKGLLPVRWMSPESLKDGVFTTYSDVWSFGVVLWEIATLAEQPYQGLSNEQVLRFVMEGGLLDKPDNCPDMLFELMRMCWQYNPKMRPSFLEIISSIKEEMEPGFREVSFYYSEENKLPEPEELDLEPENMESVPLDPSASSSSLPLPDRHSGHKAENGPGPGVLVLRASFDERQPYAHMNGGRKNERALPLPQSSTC
# UniProt Q07065, sequence (whole entry, looked up): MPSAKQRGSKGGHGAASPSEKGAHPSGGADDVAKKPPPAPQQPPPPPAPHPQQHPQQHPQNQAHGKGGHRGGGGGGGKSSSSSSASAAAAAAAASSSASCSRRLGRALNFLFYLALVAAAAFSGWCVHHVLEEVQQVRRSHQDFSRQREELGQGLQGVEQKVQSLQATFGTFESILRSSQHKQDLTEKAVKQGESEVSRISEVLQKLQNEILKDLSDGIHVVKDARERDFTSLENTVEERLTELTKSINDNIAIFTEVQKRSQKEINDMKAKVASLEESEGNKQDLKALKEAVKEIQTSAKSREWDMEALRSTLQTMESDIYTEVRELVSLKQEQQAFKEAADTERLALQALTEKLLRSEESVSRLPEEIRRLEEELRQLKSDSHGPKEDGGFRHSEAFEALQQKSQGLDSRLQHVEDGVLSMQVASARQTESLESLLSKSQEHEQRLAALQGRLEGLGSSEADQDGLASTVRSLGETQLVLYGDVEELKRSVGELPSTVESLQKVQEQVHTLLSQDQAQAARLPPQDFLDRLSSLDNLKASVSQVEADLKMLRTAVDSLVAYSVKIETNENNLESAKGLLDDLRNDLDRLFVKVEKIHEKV
Structure (SMILES),target,test,test system,setting,how to read,quantity,result
CN(C)[C@H]1C[C@@]23CC[C@@]4(O2)C(=CC[C@]2(C)[C@@H](c5ccc6ccncc6c5)CC[C@H]24)C=C3[C@@H](O)[C@@H]1O,"MAP2K4 (Homo sapiens, UniProt P45985)","ATP probe labelling, inhibitor, KiNativ profiling",,1 µM,,inhibition,9.5%
CCOC(=O)[C@@H]1Cc2c(cc([N+](=O)[O-])cc2[N+](=O)[O-])[C@H](O)[C@]12C(=O)Nc1ccc(Br)cc12,"Tyrosine-protein kinase ABL1, phosphorylated (ABL1, Homo sapiens, UniProt P00519)","binding, competition with immobilised ligand",,0.1 µM,,remaining binding,90%
N[C@H](C(=O)N1CCCC1)C1CCN(c2nccc3c(-c4ncc(Cl)cc4Cl)cccc23)CC1,"PADI1 (Homo sapiens, UniProt Q9ULC6)",enzyme activity,,"0.03932 µM, with: Ca2+ 0.25 mM",,kcat,0.313 s⁻¹ and 0.32 s⁻¹
O=C1NC(=O)c2c1c1cc(F)c[n+]3c1c1c2c2cc(O)ccc2[n]1[Ru-4]312([N]=C=S)[S+]3CC[S+]1CC[S+]2CC3 (stereo not drawn),"CAMK1D (Homo sapiens, UniProt Q8IU85)",enzyme activity,,"100 nM, human enzyme, with: 10 µM ATP",relative to: untreated,remaining activity,21%
CC[C@H](C)[C@H](NC(=O)[C@H](CCCNC(=N)N)NC(=O)[C@H](CCCNC(=N)N)NC(=O)[C@H](CC(C)C)NC(=O)[C@H](Cc1ccccc1)NC(=O)CNC(=O)CNC(=O)[C@@H](N)Cc1ccc(O)cc1)C(=O)N[C@@H](CCCNC(=N)N)C(=O)N1CCC[C@H]1C(=O)N[C@@H](CCCCN)C(=O)N[C@@H](CC(C)C)C(=O)N[C@@H](CCCCN)C(=O)O,"GPR139 (Homo sapiens, UniProt Q6DWJ6)","G protein activation, agonist, BRET, measured: Gα13",HEK-293T/17,40 µM,relative to: GαoA response,Emax,5.99%
CS(C)(=O)=Nc1ccc(-c2ccc(-c3nc4cc(O[C@@H]5CO[C@H]6[C@@H]5OC[C@H]6O)[nH]c4cc3F)cc2)cc1,"IGF1R (Homo sapiens, UniProt P08069)","enzyme activity, inhibitor",,10 µM,,inhibition,28%
C#CCCCCOc1ccc2c(c1)CCCN2C(=O)CCl,"Cytoskeleton-associated protein 4 (Homo sapiens, UniProt Q07065)",mass spectrometry profiling,H460 cell lysate,"100 µM over 10 µM, UniProt Q07065",relative to: high over low concentration,reactivity ratio,0.558
CC(C)[C@H]1NC(=O)C[C@H]2/C=C/CCSSC[C@@H](NC1=O)C(=O)N[C@H](Cc1cccc3ccccc13)C(=O)NCC(=O)O2,"HIPK3 (Homo sapiens, UniProt Q9H422)","enzyme activity, inhibitor",,10 µM,,inhibition,0.367%
CC(C)CC(O)(CC(C)C)c1cn(C(=O)N2CCCC2)nn1,"Serine hydrolase-like protein (Serhl, Mus musculus, UniProt Q9EPB5)","probe labelling, inhibitor, competitive ABPP-SILAC, measured: Serhl",mouse T cells,"concentration not given, 4 h, in situ, single peptide","relative to: treated over DMSO, lower = more inhibition",SILAC ratio,0.98 and 1.69 and 0.88 and 0.89 and 1.28

# For quick reference, copied from above:
Structure (SMILES),target,test,test system,setting,how to read,quantity,result
CCOC(=O)[C@@H]1Cc2c(cc([N+](=O)[O-])cc2[N+](=O)[O-])[C@H](O)[C@]12C(=O)Nc1ccc(Br)cc12,"Tyrosine-protein kinase ABL1, phosphorylated (ABL1, Homo sapiens, UniProt P00519)","binding, competition with immobilised ligand",,0.1 µM,,remaining binding,90%
